Published values of several laboratories.
Each line is one published result; not all experiments were run side by side. Numbers after ± are the reported error.

| Compound | assay | test system | conditions | how to read | AUC(0-inf) |
| --- | --- | --- | --- | --- | --- |
| CCOCCn1c(C2CCN(CCc3ccc(C(C)(C)C(=O)O)cc3)CC2)nc2ccccc21 | – | human, moderate renal insufficiency, plasma | oral, 20 mg, geometric LS mean | – | 1360 ng·h/mL |
| NS(=O)(=O)OC[C@@H]1C[C@@H](n2ccc3c(N[C@H]4CCc5ccccc54)ncnc32)C[C@@H]1O | – | human | iv, 8 mg/m^2 single dose, day 8, geometric mean, together with: fluconazole | – | 498 ng·h/mL |
| CC(C)NC[C@@H](C(=O)N1CCN(c2ncnc3c2[C@H](C)C[C@H]3O)CC1)c1ccc(Cl)cc1 | – | human, hepatic impairment Mild (Child-Pugh), plasma | oral, 100 mg single, geometric mean | – | 323 ng·h/mL |
| C#C[C@]1(O)CC[C@H]2[C@@H]3CCc4cc(O)ccc4[C@H]3CC[C@@]21C | – | human female, plasma | oral, 35 µg, day 1, together with: norethindrone 1 mg | – | 1.1 ng·h/mL |
| O=C(/C=C/c1cccc(S(=O)(=O)Nc2ccccc2)c1)NO | – | human severe liver dysfunction, plasma | intravenous, 400 mg/m^2, 30 min infusion, cycle 1 day -7 | – | 16900 ng·h/mL |
| CCn1c(=O)c2c(nc(/C=C/c3ccc(OC)c(OC)c3)n2C)n(CC)c1=O | – | healthy human, plasma | oral, 40 mg single dose, geometric mean, together with: rifampin 600 mg/day steady state | – | 2030 ng·h/mL |
| CO[C@H]1C[C@@H]2CC[C@@H](C)[C@@](O)(O2)C(=O)C(=O)N2CCCC[C@H]2C(=O)O[C@H]([C@H](C)C[C@@H]2CC[C@@H](O)[C@H](OC)C2)CC(=O)[C@H](C)/C=C(\C)[C@@H](O)[C@@H](OC)C(=O)[C@H](C)C[C@H](C)/C=C/C=C/C=C/1C | – | human, whole blood | oral, 35 mg, together with: grapefruit juice | – | 6660 ng·h/mL |
| C=C(C)[C@@H]1CC[C@]2(NCCN3CCS(=O)(=O)CC3)CC[C@]3(C)[C@H](CC[C@@H]4[C@@]5(C)CC=C(C6=CC[C@@](CF)(C(=O)O)CC6)C(C)(C)[C@@H]5CC[C@]43C)[C@@H]12 | – | healthy human volunteers, plasma | oral, 200 mg, tablet, moderate-fat state, geometric mean | – | 41000 ng·h/mL |
| O=C(CCCCCCC(=O)Nc1ccccc1)NO | – | human, cycle 1 day 2, plasma | oral, 400 mg, together with: bortezomib | – | 1120 ± 507 ng·h/mL |
| Cl.NCCc1c[nH]c(=S)n1[C@H]1COc2c(F)cc(F)cc2C1 | – | human male, fasted, plasma | oral, 200 mg single dose, arithmetic mean | – | 2240 ng·h/mL |
| CN(Cc1cnc2nc(N)nc(N)c2n1)c1ccc(C(=O)N[C@@H](CCC(=O)O)C(=O)O)cc1 | – | human | oral, 7.5 mg single dose, day 8, together with: isavuconazole 200 mg once daily | – | 600 ng·h/mL |
| Cc1ccc(NC(=O)c2ccc(CN3CCN(C)CC3)cc2)cc1Nc1nccc(-c2cncc(-c3oncc3C)c2)n1 | – | older healthy human adults, plasma | oral, 75.0 mg single dose, fed, mean | – | 60100 ng·h/mL |
| CCS(=O)(=O)N1CC(CC#N)(n2cc(-c3ncnc4[nH]ccc34)cn2)C1 | – | healthy Chinese human subjects, plasma | oral, 4 mg, single dose, mean | – | 274 ng·h/mL |
| C[C@@H](Oc1cc(-c2cnn(C3CCNCC3)c2)cnc1N)c1c(Cl)ccc(F)c1Cl | – | healthy human, plasma | oral, 250 mg single fasted, arithmetic mean | – | 2620 ± 1090 ng·h/mL |
| CC[C@@]1(O)C(=O)OCc2c1cc1n(c2=O)Cc2cc3c(CN(C)C)c(O)ccc3nc2-1 | – | human patients | oral, 4 mg, geometric mean, alone | – | 61 ng·h/mL |
| Cc1ccc(C(=O)NC2CC2)cc1-n1ncc(C(=O)c2cccc(C#N)c2)c1N | – | healthy human | oral, dose not given, geometric mean, together with: itraconazole 200 mg daily days 1-14 | – | 6890 ng·h/mL |
| CC(C)(C)OC[C@@H]1C(=O)NCCN1C(=O)C[C@H](N)Cc1cc(F)c(F)cc1F | – | human | 10 mg once daily, steady state, day 10 | – | 354 ± 55 ng·h/mL |
| COCCCCn1c(C(=O)N(CC(C)C)[C@@H]2CNC[C@H](C(=O)N3CCOCC3)C2)nc2ccccc21 | – | elderly human, plasma | oral, 80 mg, day 1, multiple dosing | – | 5890 ng·h/mL |
| O=c1[nH]c(=O)c(Cc2cccc(C(F)(F)F)c2)c([C@H]2CC[C@H](c3ccccc3)CC2)[nH]1 | – | human, male, plasma | oral, 150 mg 14C solution, geometric mean | – | 4420 ng·h/mL |
| C=CC(=O)N1CCC([C@@H]2CCNc3c(C(N)=O)c(-c4ccc(Oc5ccccc5)cc4)nn32)CC1 | – | human | oral, 160 mg, single dose, mean | – | 1230 ng·h/mL |
| CCc1nc(C(N)=O)c(Nc2ccc(N3CCC(N4CCN(C)CC4)CC3)c(OC)c2)nc1NC1CCOCC1 | – | human, mild hepatic impairment, plasma | oral, 10 mg, single dose, fasted, geometric LS mean | – | 433 ng·h/mL |
| CC(=O)O[C@H]1C(=O)[C@@]2(C)[C@H]([C@H](OC(=O)c3ccccc3)[C@]3(O)C[C@H](OC(=O)[C@H](O)[C@@H](NC(=O)c4ccccc4)c4ccccc4)C(C)=C1C3(C)C)[C@]1(OC(C)=O)CO[C@@H]1C[C@@H]2O | – | human patients on any protease inhibitor, plasma | iv, 100 mg/m^2 over 3 h, cycle 1 | – | 5.5 ± 2.2 µM·h |

| Compound | assay | test system | conditions | how to read | AUC(0-inf) |
| --- | --- | --- | --- | --- | --- |
| C=CC(=O)Nc1cc(Nc2ncc(C(=O)OC(C)C)c(-c3cn(C)c4ccccc34)n2)c(OC)cc1N(C)CCN(C)C | – | human, fasted | oral, 160 mg single dose, geometric mean | – | 1020 ng·h/mL |
| O=C(/C=C/c1cccc(S(=O)(=O)Nc2ccccc2)c1)NO | – | human patients, plasma | intravenous, 1000 mg/m2, cycle 1 day 1 | – | 77.9 µM·h |
| CN[C@@H]1COc2c(S(=O)(=O)NC(=O)Nc3c4c(cc5c3CCC5)CCC4)cnn2C1 | – | human | oral, 600 mg, high-fat meal, geometric LS mean | – | 147000 ng·h/mL |
| CC(C)c1nc(N(C)S(C)(=O)=O)nc(-c2ccc(F)cc2)c1/C=C/[C@@H](O)C[C@@H](O)CC(=O)O | – | human, plasma | oral, 20 mg, geometric LS mean, together with: EDP-305 10 mg | – | 61.2 ng·h/mL |
| CN[C@H]1CN(c2ccc3c(=O)c(C(=O)O)cn(-c4nccs4)c3n2)C[C@@H]1OC | – | human patients, plasma | intravenous, 18 to 90 mg/m^2 weekly, day 1, cycle 1, mean, noncompartmental | – | 31200 ng·h/mL |
| O=C(/C=C/c1cccc(S(=O)(=O)Nc2ccccc2)c1)NO[C@@H]1O[C@H](C(=O)O)[C@@H](O)[C@H](O)[C@H]1O | – | human mild liver dysfunction, plasma | intravenous, 400 mg/m^2, 30 min infusion, cycle 1 day -7, together with: belinostat 400 mg/m^2 iv | – | 307000 ng·h/mL |
| COc1ccc(C[C@@H](C)[C@@H](C)Cc2ccc(OC)c(OC)c2)cc1OC | – | human patients, fasted | oral, 3600 mg, cycle 1 day 4 | – | 2500 ± 1700 ng·h/mL |
| CN(Cc1nc2c(N)nc(N)nc2[nH]c1=O)c1ccc(C(=O)N[C@@H](CCC(=O)O)C(=O)O)cc1 | – | human, plasma | oral, 20 mg methotrexate, day 1, alone, arithmetic mean | – | 1980 ng·h/mL |
| Cc1ccc(NC(=O)c2ccc(CN3CCNCC3)cc2)cc1Nc1nccc(-c2cccnc2)n1 | – | human patients, plasma | oral, 400 mg/day of imatinib, day 14 of cycle 1, together with: IL-2 6 MIU/day days 10-14 | – | 37000 ng·h/mL |
| CC(C)[C@](O)(c1ccc2cc(OC(F)F)c(OC(F)F)cc2c1)c1c[nH]nn1 | – | human patients, male, plasma | oral, 600 mg, cycle 1 day 1, first dose | – | 33000 ± 4330 ng·h/mL |
| CN(C)Cc1c(C(=O)NCCOc2ccc(C(=O)NO)cc2)oc2ccccc12 | – | human, plasma | oral, 60 mg single dose | – | 242 ± 41 ng·h/mL |
| CCOc1cc([C@@H](CS(C)(=O)=O)N2C(=O)c3cccc(NC(C)=O)c3C2=O)ccc1OC | – | healthy human, both sexes, plasma | oral, 30 mg single dose, together with: rifampicin 600 mg oral once daily, dose 14 | – | 912 ng·h/mL |
| CC(=O)C[C@@H](c1ccccc1)c1c(O)c2ccccc2oc1=O | – | human | 200 mg | – | 48100 ± 19700 ng·h/mL |
| CCN1CCN(Cc2ccc(Nc3ncc(F)c(-c4cc(F)c5nc(C)n(C(C)C)c5c4)n3)nc2)CC1 | – | human patients, plasma | oral, 200 mg single, geometric mean | – | 3580 ng·h/mL |
| CC(C)[C@@H](CS(=O)(=O)C(C)C)N1C(=O)[C@@](C)(CC(=O)O)C[C@H](c2cccc(Cl)c2)[C@H]1c1ccc(Cl)cc1 | – | human, plasma | oral, 60 mg, old tablet fasted | – | 2870 ng·h/mL |
| N#C[C@@H]1C[C@@H]2C[C@@H]2N1C(=O)[C@@H](N)C12CC3CC(CC(O)(C3)C1)C2 | – | healthy human subjects, plasma | oral, 10 mg, day 10, geometric mean, together with: diltiazem extended-release 360 mg | – | 332 ng·h/mL |
| CO[C@H]1C[C@@H]2CC[C@@H](C)[C@@](O)(O2)C(=O)C(=O)N2CCCC[C@H]2C(=O)O[C@H]([C@H](C)C[C@@H]2CC[C@@H](O)[C@H](OC)C2)CC(=O)[C@H](C)/C=C(\C)[C@@H](O)[C@@H](OC)C(=O)[C@H](C)C[C@H](C)/C=C/C=C/C=C/1C | – | healthy adult human, blood | oral, 0.5 mg single dose, geometric mean, together with: ritonavir-containing 3D regimen | – | 1700 ng·h/mL |
| CC(C)(/C=C(\C#N)C(=O)N1CCC[C@@H](n2nc(-c3ccc(Oc4ccccc4)cc3F)c3c(N)ncnc32)C1)N1CCN(C2COC2)CC1 | – | human, plasma | oral, 100 mg single dose, median | – | 51 ng·h/mL |
| Cc1c(Cl)c(C)[n+]([O-])c(Cl)c1-c1noc(-c2cc(O)c(O)c([N+](=O)[O-])c2)n1 | LC-MS/MS | healthy male human, fasted, plasma | oral, 50 mg single dose, tablet | – | 5200 ± 1530 ng·h/mL |
| COC(=O)c1ccc2c(c1)NC(=O)/C2=C(\Nc1ccc(N(C)C(=O)CN2CCN(C)CC2)cc1)c1ccccc1 | – | human, Child-Pugh A hepatic impairment, plasma | oral, 100 mg, single dose, fed | adjusted geometric mean | 200 ng·h/mL |
| CN(Cc1cnc2nc(N)nc(N)c2n1)c1ccc(C(=O)N[C@@H](CCC(=O)O)C(=O)O)cc1 | – | human, plasma | oral, 17.5 mg, day 1, alone | – | 2250 ng·h/mL |
| CCCC[C@H](NC(C)=O)C(=O)N[C@H]1CCC(=O)NC[C@@H](C(=O)N[C@@H](Cc2c[nH]c3ccccc23)C(N)=O)NC(=O)[C@H](CCCNC(=N)N)NC(=O)[C@@H](Cc2ccccc2)NC(=O)[C@H](Cc2c[nH]cn2)NC1=O | – | healthy human volunteers, plasma | subcutaneous, 1.0 mg once daily, day 7 | – | 57.2 ng·h/mL |
